Values quoted from earlier work, collected from citations in different studies.
± marks the error that the study gave.

SMILES	target or system	assay	test system	conditions	how to read	quantity	result
CNC(C)C1CCC(N)C(OC2C(N)CC(N)C(OC3OCC(C)(O)C(NC)C3O)C2O)O1 (stereo not shown)	Pseudomonas aeruginosa	–	clinical isolate RKI-No_81/10	–	–	MIC	> 8 µg/mL
COc1ccccc1Oc1cccc(CN2CCC(O)(c3ccccc3C(=O)O)CC2)c1	human CCR8 F123A mutant (TM3)	IP accumulation, agonist	–	–	–	EC50	21 nM
COC(=O)C1=C(C)NC(C)=C(C(=O)OC)C1c1c(-c2cccc(OC)c2)nc2sccn12	–	negative inotropic effect	guinea pig, isolated left atrium	–	–	EC50	1900 nM
O=C(Nc1nc2ccccc2[nH]1)c1ccccc1	SUMO/sentrin specific protease 8	–	–	12.5 µM, PubChem AID 488912	–	response	83%
Cc1cc(NC(=O)c2cccc(NC(=O)/C=C/CN(C)C)c2)ccc1Nc1nccc(-c2cccnc2)n1	JNK1	–	–	1 µM	baseline: control	remaining activity	0%
CSc1ccc(C=CC(=O)NC(=O)c2ccccc2O)cc1	Plasmodium falciparum	whole cell extended time	3D7	72 h	–	IC50	290 nM
CCNS(=O)(=O)c1ccc(OC)cc1C1(O)CCN(Cc2cccc(Oc3ccccc3OC)c2)CC1	human CCR8 G206W mutant (TM5)	IP accumulation, agonist	–	–	–	EC50	4.7 nM
Cc1nc(C)c(-c2ccc(Oc3ccc(OC(F)(F)F)cc3)cc2)c(O)c1I	Plasmodium falciparum	whole cell extended time	3D7	72 h	–	IC50	130 nM
Cc1c(C#N)cccc1[C@@H](C)Nc1nnc(C)c2cnc(N3CCOCC3)cc12	OCI-AML-5	ERK phosphorylation, In-Cell Western, refers to: phospho-ERK	–	–	–	IC50	107 ± 33.7 nM
COC(=O)C1=C(C)NC(C)=C(C(=O)OC)C1c1c(C(F)(F)F)nc2sccn12	–	decrease in atrial rate	guinea pig right atrium	–	–	EC50	860 nM
CC(C)(C)n1nc(Cc2cccc3ccccc23)c2c(N)ncnc21	CSNK1D	kinase activity, inhibitor	–	0.5 µM	–	inhibition	46%
CCCCCCCc1c(C)[nH]c2cc(OC)ccc2c1=O	Plasmodium falciparum	whole cell extended time	3D7	72 h	–	IC50	60 nM
C[C@H]1COCCN1c1nc(-c2cnc(N)cc2C(F)F)nc(N2CCOCC2)n1	LNCaP FGC cells	cell growth	–	–	–	GI50	356 nM
Cc1cc(=O)c(-c2ccc(Oc3cccc(OC(F)(F)F)c3)cc2)c(C)[nH]1	Plasmodium falciparum	whole cell extended time	3D7	72 h	–	IC50	200 nM
Nc1cccc2c1C(=O)N(C1CCC(=O)NC1=O)C2=O (stereo not shown)	–	–	relapsed refractory multiple myeloma patients	dose not given	–	median duration of response	8.3 months
COC(=O)C1=C(C)NC(C)=C(C(=O)OC)C1c1c(-c2ccccc2OC(F)(F)F)nc2sccn12	–	–	guinea pig left atrium	5x1.000e-06 M	–	decrease in contractile force	67 ± 2%
Cc1[nH]c(C)c(-c2ccc(-c3ccc(F)cc3)cc2)c(=O)c1Br	Plasmodium falciparum	whole cell extended time	3D7	72 h	–	IC50	1070 nM
CC1(C)S[C@@H]2[C@H](NC(=O)[C@H](N)c3ccccc3)C(=O)N2[C@H]1C(=O)O	Enterobacter cloacae	–	clinical isolate RKI-No_766/15	–	–	MIC	> 16 µg/mL
COc1ccccc1Oc1cccc(CN2CCC3(CC2)C(=O)NCN3CCc2ccccc2)c1	human CCR8 S262A mutant (TM6)	IP accumulation, agonist	–	–	–	EC50	21 nM
Nc1cc(C(F)(F)F)c(-c2nc(N3CCOCC3)nc(N3CCOCC3)n2)cn1	MOLT-4	–	–	–	–	GI50	393 nM
N#Cc1ccc(CN2CCC(Oc3ccc(NC(=O)c4cccs4)cc3Cl)CC2)cc1	Plasmodium falciparum	whole cell extended time	3D7	72 h	–	IC50	580 nM
COc1ccccc1Oc1cccc(CN2CCC(NC(=O)C(CCN3CCCC3)c3ccccc3)CC2)c1 (stereo not shown)	human CCR8 W251Q mutant (TM6)	IP accumulation, agonist	–	–	–	EC50	10 nM
Cc1[nH]c(C)c(-c2ccc(CCc3ccc(F)cc3F)cc2)c(=O)c1Cl	Plasmodium falciparum	whole cell extended time	3D7	72 h	–	IC50	20 nM
CCN(c1cc(-c2ccc(CN3CCOCC3)cc2)cc(C(=O)NCc2c(C)cc(C)[nH]c2=O)c1C)C1CCOCC1	–	–	treatment-naive epithelioid sarcoma patients	dose not given	–	overall response rate	16%
COC(=O)C1=C(C)NC(C)=C(C(=O)OC)C1c1c(-c2cccc(OC(F)(F)F)c2)nc2sccn12	–	–	guinea pig right atrium	5 µM, spontaneously beating	baseline: control	decrease in atrial rate	69 ± 4.3%
Cc1[nH]c(C)c(-c2ccc(OCc3cc(F)cc(F)c3)nc2)c(=O)c1Cl	Plasmodium falciparum	whole cell extended time	3D7	72 h	–	IC50	90 nM
COc1ccccc1Oc1cccc(CN2CCC(NC(=O)C3CC(=O)Nc4ccccc43)CC2)c1 (stereo not shown)	human CCR8 Y172A mutant (ECL2)	IP accumulation, agonist	–	–	–	EC50	30 nM
COC(=O)C1=C(C)NC(C)=C(C(=O)OC)C1c1c(Cl)nc2sc(Cl)cn12	–	negative inotropic effect	guinea pig, isolated left atrium	–	–	EC50	180 nM
